Experimental data collected from several papers.
Numbered parts are unrelated; each lists some results of a single study.

Block 1
Target: RNA binding protein fox-1 homolog 2, RRM domain, GST-SBP tag (RBFOX2, Homo sapiens, UniProt O43251-10, residues 100-194)
Method: RNA Bind-n-Seq
Molecule type: RNA
Sample: in vitro
Concentration: 365 nM
Setting: natural RNA segment, single round, ends assumed
Baseline: no-protein control
Reading: higher = stronger binding
Constant ends, left off below: GGGAGUUCUACAGUCCGACGAUC … UGGAAUUCUCGGGUGCCAA
Residues (chain): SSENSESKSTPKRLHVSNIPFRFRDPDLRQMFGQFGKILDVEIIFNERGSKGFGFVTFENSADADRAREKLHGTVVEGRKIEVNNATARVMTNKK
| Sequence | RBNS enrichment (R) |
| --- | --- |
| UCUGAGCCACAGUUAGCUGCUAUUUUGAGGCAUCCAAGGGGAAGUGGGCUGAAAAACGCCACACUCAUUUCAAGGGGCAAUGUCUGGGGUUUAGAAAUUCAUUUAUAACU | 0.53 |
| GGUUUGGAGAAACUGGAGAAAUCACCCUUUUAAGGAAGAAACACUGGAAAUUUCUGCUAACACCAAGAUAUUUAAGAGUGUACAUAGUAGGUGCUCAACAAAUUUAUUGA | 0.337 |
| UUUUGCUGGCCUUAACUGGUAUCAAACGCUGUCAUUGAGAUGUUUUCAAAGAACAUUGAGUUGUAUUUAAUCAGCGUGUACUCCAUUUGCAUUGAAGCAUUAAAAAUUAU | 0.495 |
| GGAGAGUGGCUGGAUGGCUUUGGCUGCCCUGUAGCCUACCUGUGGCAGCAUACUGUGCCAGCCAUGCACUGUAUUAGGGAGGGGGAUGUCAACAGCCUUGGUUGAGGUGG | 0.643 |
| AAAAUCAAGUGGACUGAGUCAUUGAUAAAACAUUUCUAAGAGUGGGGCUAGAGAACAUACUUUACAUCUGACAUCCUUUGGCCUAACAACAUCUAUUAUUAUAGUGCUCA | 0.293 |
| CUCAACCCCUGCAACCUUCCCUAGCCCCCUCAAUAGAUGAGCAGGUCAGGCUGUGGCCCUUACCUCACCCGCAGUUCUCGCCCAGUGCUGCAGCCGGCUCACCUCUCUCC | 0.784 |
| CCUUGCACCUCCAAUAGGUUUUAUUAUUUUUUUUAAAUUAAUGAACAUAUGUAAUAUUAAUAGUUAUUAUUUACUGGUGCAGAUGGUUGACAUUUUUCCCUAUUUUCCUC | 0.425 |

Block 2
Target: Fragile X messenger ribonucleoprotein 1, C-terminal low-complexity region (Fmr1, Mus musculus, UniProt P35922)
Method: RNA Bind-n-Seq
Molecule type: RNA
Sample: in vitro
Concentration: 200 nM
Setting: whole 134-nt RNA, ends assumed
Together with: 150 mM KCl
Baseline: input library
Reading: higher = stronger binding
Constant ends, left off below: GGGAGUUCUACAGUCCGACGAUC … UGGAAUUCUCGGGUGUCAAGG
| Sequence | log2 enrichment |
| --- | --- |
| CACAGACAACACGCACCCACACAGACACAGAGGGAAGGGAAAGGGAUGGGGACAGGGUGCACAGCAGGGCGGGGUAGGACCCCAGCCCCU | 1.02 |
| CACAGACAACAGGCACCCACACAGACACAGAGGGAAGGGGUUGGGAUGGGGACAGGGUGCACAGCAGGGCGGGGUAGGACCCCAGCCCCU | 0.826 |
| CCUGUGCUACACAUCGUAUGUACCGAAUCGGUUUUUUUGGUUUUUUUGGGGUUUUUUUGGAAAGUAUUAUGUUACGCCGUUCGGAUCUGC | -0.596 |
| CAAGUCCUGUGCUACACAUCGUAUGUACCGAAUCGGGUUUGGGAGGGUUUUUGGGAAAGUAUUAUGUUACGCCGUUCGGAUCUGCACUUC | 0.88 |
| ACCAUGCAGGUGGGCAUAAAUGGGAAGUGGGGCAAGGGGGGGAUAGGGAGGGGGGUAACACUUUGGGAACAGGUGGUCCCAGGUCGUUUC | 0.463 |
| UGGACCCGGAGCUGAUGCAGAAGUUCAGCUGCCUGGGCACCACCGACAAGGACGUGCUCAUCUCCGAGUUCCAGAGGCUGCUCGGCUUCC | -0.582 |
| CACAGACAACACGCACCCACACAGACACAGAGGGAAGGGUUUGGGAUGGGGACAGGGUGCACAGCAGGGCGGGGUAGGACCCCAGCCCCU | 1.41 |
| UAACUUUAGAGGAGGAUCUGAUGGAUAUGGCAGUGGACCUGGAUUUGGGGAUGGCUAUAAUGGGUAUGGAGGAGGACCUGGAGGUGGCAA | 0.125 |

Block 3
Target: Sal-like protein 4, full length isoform A (SALL4, Homo sapiens, UniProt Q9UJQ4, residues 1-1053)
Chain of UniProt Q9UJQ4 (whole entry, looked up): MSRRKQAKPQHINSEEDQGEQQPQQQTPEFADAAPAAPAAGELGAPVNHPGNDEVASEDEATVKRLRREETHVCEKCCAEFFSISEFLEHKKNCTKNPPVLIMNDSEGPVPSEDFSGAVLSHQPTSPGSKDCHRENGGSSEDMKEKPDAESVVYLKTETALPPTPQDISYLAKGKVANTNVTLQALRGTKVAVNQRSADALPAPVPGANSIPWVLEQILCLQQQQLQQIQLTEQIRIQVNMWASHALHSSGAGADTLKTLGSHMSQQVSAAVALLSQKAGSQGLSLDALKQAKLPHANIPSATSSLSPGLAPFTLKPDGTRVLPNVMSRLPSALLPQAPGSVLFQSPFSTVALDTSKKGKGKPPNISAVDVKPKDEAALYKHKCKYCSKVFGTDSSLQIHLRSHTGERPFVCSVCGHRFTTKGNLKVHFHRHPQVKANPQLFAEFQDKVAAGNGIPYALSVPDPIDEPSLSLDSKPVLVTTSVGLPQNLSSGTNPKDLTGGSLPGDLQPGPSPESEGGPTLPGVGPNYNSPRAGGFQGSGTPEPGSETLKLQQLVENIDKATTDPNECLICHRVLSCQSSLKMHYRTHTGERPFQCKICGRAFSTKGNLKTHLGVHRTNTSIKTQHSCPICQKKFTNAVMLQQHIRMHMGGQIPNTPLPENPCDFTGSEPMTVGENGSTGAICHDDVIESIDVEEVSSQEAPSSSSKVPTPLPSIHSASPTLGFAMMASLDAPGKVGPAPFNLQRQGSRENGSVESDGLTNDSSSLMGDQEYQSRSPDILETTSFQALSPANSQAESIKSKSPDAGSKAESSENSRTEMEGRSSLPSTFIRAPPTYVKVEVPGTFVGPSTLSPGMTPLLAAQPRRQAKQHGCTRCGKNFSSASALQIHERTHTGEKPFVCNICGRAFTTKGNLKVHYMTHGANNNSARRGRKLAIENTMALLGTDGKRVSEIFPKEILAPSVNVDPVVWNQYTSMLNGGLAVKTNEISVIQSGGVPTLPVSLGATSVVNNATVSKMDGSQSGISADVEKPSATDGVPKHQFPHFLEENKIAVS
Method: universal PBM
Molecule type: double-stranded DNA, one strand shown
Sample: in vitro
Concentration: 600 nM
Setting: 8-mer, flanks averaged, mean of replicates
Reading: higher = stronger binding
| Sequence | E-score |
| --- | --- |
| AAGCAGAA | 0.113 |
| AGCACTAC | -0.0102 |
| CAGGACAC | -0.116 |
| AGACATGG | 0.15 |
| CCGGTAAA | 0.0064 |
| CAGACAGG | -0.218 |
| GATTCAAC | -0.163 |
| GAACTAAA | 0.191 |
| GGTTTGGA | -0.0165 |
| CCTCTTGC | -0.253 |
| AGCAAGCA | -0.104 |
| ACTACAAA | 0.168 |
| GACGACGC | -0.227 |
| CAGGCGTC | -0.36 |
| GTCCGAAA | 0.0681 |
| CAGGGCAA | -0.0695 |

Block 4
Target: PABPC1L2, full length, GST fusion (mouse, UniProt A0ABA7IW68)
Method: RNAcompete
Molecule type: RNA
Sample: in vitro
Concentration: 20 nM
Setting: 7-mer, probes averaged, single round
Baseline: mean of 7-mers
Reading: higher = stronger binding
Construct (chain): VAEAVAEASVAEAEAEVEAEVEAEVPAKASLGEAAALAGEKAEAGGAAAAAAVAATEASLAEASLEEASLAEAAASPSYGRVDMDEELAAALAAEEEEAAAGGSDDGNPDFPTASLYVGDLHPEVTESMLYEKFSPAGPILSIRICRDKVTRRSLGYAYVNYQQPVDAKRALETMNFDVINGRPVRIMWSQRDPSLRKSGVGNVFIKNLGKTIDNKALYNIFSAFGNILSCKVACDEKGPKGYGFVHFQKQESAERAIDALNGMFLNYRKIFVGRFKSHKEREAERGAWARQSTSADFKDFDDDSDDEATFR
| Sequence | 7-mer Z-score |
| --- | --- |
| CCACCAG | -0.159 |
| CCGUUAC | -0.233 |
| UGUUAUG | -0.4 |
| ACUUUUA | -0.0047 |
| UCCCACC | -0.416 |
| CACGCUU | -0.309 |
| UUAGCCG | -0.219 |
| ACUAUUA | 0.0823 |
| UCAUUUC | -0.438 |
| UAGCUUG | -0.171 |
| UCAGCAG | -0.0573 |
| UUGGUGC | -0.228 |
| GAUAAAU | 1.83 |
| CAAAAGA | 2.79 |
| GCAGCCC | -0.179 |

Block 5
Target: Histone acetyltransferase KAT6A, winged helix 1, GST fusion (KAT6A, Homo sapiens, UniProt Q92794, residues 1-85)
Method: protein binding microarray
Molecule type: double-stranded DNA, one strand shown
Sample: in vitro
Concentration: not given
Setting: 8-mer, flanks averaged, mean of 2 arrays, mostly near background
Baseline: not given
Reading: higher = stronger binding
Construct (chain): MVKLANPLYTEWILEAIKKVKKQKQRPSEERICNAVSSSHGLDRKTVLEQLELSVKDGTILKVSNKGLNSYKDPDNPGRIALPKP
| Sequence | E-score |
| --- | --- |
| GAAGTTTA | -0.00649 |
| GTGCGTGA | 0.122 |
| ACCCATGA | -0.272 |
| CGCCAGGC | 0.23 |
| GAACACCA | -0.228 |
| ACCAAAAA | -0.0923 |
| ACTACCCA | -0.203 |
| CAGGTCCC | 0.202 |
| ATTCCTAC | -0.0866 |
| AGACAATA | 0.0145 |
| AAAAGTCG | -0.0981 |
| TAGAAAGA | -0.119 |
| CCGTCCCG | 0.406 |
| CCCTGCCC | -0.172 |
| ATGTCTAG | 0.0116 |
| GCATTATA | 0.0603 |

Block 6
Target: Centromere-binding protein 1, full length, N-terminal tag (CBF1, Saccharomyces cerevisiae, UniProt P17106, residues 1-351)
Chain of UniProt P17106 (whole entry, looked up): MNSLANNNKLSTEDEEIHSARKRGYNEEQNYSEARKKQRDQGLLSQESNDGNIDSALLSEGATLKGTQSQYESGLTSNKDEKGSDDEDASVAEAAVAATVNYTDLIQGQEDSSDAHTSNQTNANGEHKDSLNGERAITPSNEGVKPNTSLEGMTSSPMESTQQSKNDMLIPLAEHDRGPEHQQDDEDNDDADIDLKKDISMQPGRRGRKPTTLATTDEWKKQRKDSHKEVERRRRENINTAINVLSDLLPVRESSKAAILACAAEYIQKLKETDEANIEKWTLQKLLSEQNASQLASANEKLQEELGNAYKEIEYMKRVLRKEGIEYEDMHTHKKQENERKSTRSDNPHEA
Method: protein-binding microarray
Molecule type: double-stranded DNA, one strand shown
Sample: in vitro
Concentration: 0.8 µM
Setting: whole 60-bp probe, no competitor
Reading: higher = stronger binding
Constant ends, left off below: … GTCTTGATTCGCTTGACGCTGCTG
| Sequence | fluorescence intensity [a.u.] |
| --- | --- |
| CTAAGCATTTTTTATCACGTTATTCGGTGACACTTC | 2120 |
| CTATTTAACTGCACTGACGTCAATACTAACGTATTC | 574 |
| CTACTGAATCCGATTCTGATGATGAAGAGGAAGTTC | 514 |
| CTAGTAAAATCGCAACACGTGATATTGCTCGTCTTC | 10700 |
| CTAGCTCTGTTTAGTCACATGATTCTTTCCCAATTC | 6380 |
| GAAAGATTTCATTTTCACGAGGATCGATTTCTATAG | 618 |
| CTACCTTCGCCATAGTTCGTGATGAAAACTTTATTC | 575 |
| GAATCCAAGAACTACCTCGTGCCATACCTGTTATAG | 712 |
| CCTAACTACTATAGAAAGGTCACATAGCTTCGTACA | 565 |
| GAACCCGACCTTACAGGCGTGCACCGCGTAGTATAG | 496 |
| CCTAACTACTATATGGCCGTGTCATAGCTTCGTACA | 526 |
| TGTACGAAGCTATTAGTCATGTGTATAGTAGTTAGG | 1240 |
| CTACCTCTTTTTTTTCACGTGCTGCGCTGATGTTTC | 3630 |
| GAAGGTCTGTCTGATCACATTTCCAAAGGCAATTAG | 641 |

Block 7
Target: RING finger protein unkempt homolog, zinc fingers 1-6, SBP tag (UNK, Homo sapiens, UniProt Q9C0B0, residues 30-357)
Chain of UniProt Q9C0B0 (30-357, looked up): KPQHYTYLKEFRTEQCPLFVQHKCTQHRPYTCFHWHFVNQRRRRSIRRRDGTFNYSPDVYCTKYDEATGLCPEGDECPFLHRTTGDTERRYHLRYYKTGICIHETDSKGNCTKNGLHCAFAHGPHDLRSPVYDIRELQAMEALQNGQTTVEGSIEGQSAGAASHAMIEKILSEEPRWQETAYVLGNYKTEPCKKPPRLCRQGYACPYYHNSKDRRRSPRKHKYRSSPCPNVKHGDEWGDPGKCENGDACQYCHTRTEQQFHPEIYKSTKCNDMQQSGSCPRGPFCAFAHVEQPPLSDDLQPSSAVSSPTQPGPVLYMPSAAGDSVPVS
Method: RNA Bind-n-Seq
Molecule type: RNA
Sample: in vitro
Concentration: 100 nM
Setting: RNA with constant flanks, vertebrate orthologous sites, ends assumed
Baseline: input RNA pool
Reading: higher = stronger binding
Constant ends, left off below: GGGAGUUCUACAGUCCGACGAUC … CAACAGAGGAUUGAGCAUCA
| Sequence | bound/input enrichment |
| --- | --- |
| GUUCCCGAGCAGCAGUUAGACAGGUUUCCCUCUAUUCUCUCAAAAAGCAAAAGGCCCCCGGAGAUUCCCUACCCACCCAACUAUACUGUUCUGGGCUUGUUUCCUGUUAUCUUUCACAUA | 0.602 ratio |
| CCGAAAGGCCAAAUUCCCUCCUCCCUUCUACUGCUUCUACCAACUGGAAGCACAGAAAACUAGAAUUUCAUUUAUUUUGUUUUUAAGAAAUACAUGUUGGUUUCUUGUAACAUCCAAUAG | 0.498 ratio |
| ACACACAAGAUAUUUUAACUGUUUUAAAGUUACAAACAUGCUUUGCUUUUUGCAUUUAAAUAGAAUACUUUUAUAUUUUAAGUACUUCAGAUGUGUGGAGUUGUUAGUUUGCUCUUAUAA | 0.704 ratio |
| GCCCCCCACUCCCUGUGAGAGGGAAUGGGGGAAGCCUGAUGACCCUCAGCUGUUCCAAUCUAGUAUUUUUUUCUUUUUUAAAGUUACUGUAUUUAUUAUGACGAUGGUGACUCCCCAGUG | 2.29 ratio |
| GCUGUUGGUGAUUUGCAGAAACCUCAAUUCUGUCAGUGCAGAGUGCCCUGCACCCUGAAACUAGCUAUAGGAAUUUAAUAUUUUUAAAAGUUUUACAUUGCUGUAUAUUCAAAGAUUUGU | 0.404 ratio |
| GUAGUCCUCCACUUAGGGUCAGCCUCAAGUAUACGGAAUUUCUGAAAAAUGUAUUAUAUCUAUCUAGUUAAGUUGAGUUUGAUAUUUUUUACUAGACUGUAAGCAAAGAUGGCAUCUUAU | 0.617 ratio |
| CAGCUGAUUCACUCAUUGGGAGAGCUGCACAUAUAGCUGUUCUUGAUUCGGAAAUAUUUUUAGAGAAAUUCUUUCUGGUUGCUGCCCUCAAAUAUUUCCAGUAGGAUAAAAACAUUGUUA | 1.26 ratio |

Block 8
Target: Prothrombin, mature alpha-thrombin (F2, Homo sapiens, UniProt P00734)
Method: aptamer microarray, sandwich
Molecule type: DNA with 2'F-ANA
Sample: in vitro
Concentration: 200 nM
Setting: whole 15-mer aptamer, many near background
Together with: Cy3 exosite-II aptamer, 400 nM
Reading: higher = stronger binding
Sequence: GGTTGGTGTGGTTGG
| Modification | mean fluorescence intensity [a.u.] |
| --- | --- |
| 2'F-ANA at 1 3 6 10 12 13 15 | 108 |
| 2'F-ANA at 2 3 5 7 12 14 15 | 58.9 |
| 2'F-ANA at 1 3 6 7 10 11 13 15 | 258 |
| 2'F-ANA at 1 2 3 4 5 6 9 10 11 15 | 52.8 |
| 2'F-ANA at 2 4 5 7 8 9 10 11 14 15 | 46.5 |
| 2'F-ANA at 2 3 4 5 11 14 15 | 50.4 |
| 2'F-ANA at 5 6 9 10 11 12 14 15 | 48.7 |
| 2'F-ANA at 2 4 6 7 8 9 10 | 76.9 |
| 2'F-ANA at 1 2 3 4 6 7 10 11 14 15 | 50.9 |
| 2'F-ANA at 1 3 7 8 9 11 12 14 15 | 118 |
| 2'F-ANA at 2 3 5 6 7 8 9 12 13 14 | 105 |
| 2'F-ANA at 2 3 4 6 8 12 15 | 866 |

A few entries again (block 5):
| Sequence | E-score |
| --- | --- |
| GAAGTTTA | -0.00649 |
| GTGCGTGA | 0.122 |
| ACCCATGA | -0.272 |
| CGCCAGGC | 0.23 |
| GAACACCA | -0.228 |
| ACCAAAAA | -0.0923 |
| ACTACCCA | -0.203 |
| CAGGTCCC | 0.202 |
| ATTCCTAC | -0.0866 |
| AGACAATA | 0.0145 |
| AAAAGTCG | -0.0981 |
| TAGAAAGA | -0.119 |
| CCGTCCCG | 0.406 |
| CCCTGCCC | -0.172 |
